Measurements from different studies.
Values joined by “and” are separate records of one study, mostly repeats; a detail may differ. ± gives the spread as reported. Converted amounts (≈) assume the structure as drawn.

COC(=O)[C@@H]1[C@H]2C[C@H]3c4[nH]c5ccccc5c4CCN3C[C@@H]2CC[C@@H]1O — IC50 (Plasmodium falciparum; D10): 3980 nM
COc1cc(CCC[P+](c2ccccc2)(c2ccccc2)c2ccccc2)c(OC)c2c1OCO2.[I-] — GI50 (IGROV-1; SRB): -6 log M
NCCCC[C@@H]1NC(=O)[C@@H](CCCN)NC(=O)[C@@H](Cc2ccccc2)NC(=O)[C@H](Cc2ccccc2)NC(=O)CNC1=O — IC90 (Naegleria fowleri; trophozoites): > 16 µg/mL
COc1c(C)c2c(c(O)c1C/C=C(\C)CCC(=O)O)C(=O)OC2 — IC50 (RD; cell proliferation; muscle cancer): 4070 nM
O=C(NC1C2CC3CC(C2)CC1C3)c1cc(-c2ccncc2)c[nH]1 (stereo not drawn) — IC50 (Vero; 48 h): 44.7 µg/mL
COc1ccc(-n2ccnc2SCC(=O)Nc2cc(C)ccc2C)c(OC)c1 — EC50 (Plasmodium falciparum; parasite growth, SYBR Green; 3D7 DHODH E182D; 72 h): 653 ± 74 nM
COc1ccc2c(c1)[nH]c1c(C)nccc12 — methylation reduction (DU-145; bisulfite pyrosequencing, item: RASSF1A promoter CpG site 5; concentration not given; relative to: vehicle): 0%
CCOC(=O)Nc1ccc(NCc2ccc(F)cc2)nc1N — IC50 (Plasmodium falciparum; 7G8): 2510 nM
CCN(CC)CC#Cc1ccc2[nH]c(C)c(Cl)c(=O)c2c1 — EC50 (Plasmodium falciparum; parasite growth, SYBR Green; 3D7 DHODH E182D; 72 h): 1250 ± 170 nM
CC(CCc1ccccc1)NC(C)C(O)c1ccc(O)cc1 (stereo not drawn) — IC50 (Plasmodium falciparum; W2): 2510 nM
Nc1ncnc2c1ncn2[C@@H]1O[C@@H]2COP(=O)(O)O[C@H]3[C@@H](O)[C@H](n4cnc5c(=O)[nH]cnc54)O[C@@H]3COP(=O)(O)O[C@H]2[C@H]1O — fold enrichment (HFF-1; RNA sequencing, item: Reactome Butyrophilin family interactions; upregulated pathways; relative to: mock): 19
Cc1noc(-c2cccs2)c1C(=O)NC(C)c1cccc2ccccc12 (stereo not drawn) — EC50 (Plasmodium falciparum; parasite growth; Dd2): 42 ± 2.1 nM
NCCCC[C@H]1NC(=O)[C@H](Cc2ccccc2)NC(=O)[C@H](Cc2c[nH]c3ccccc23)NC(=O)[C@@H](Cc2ccccc2)NC(=O)[C@H](Cc2ccccc2)NC(=O)[C@@H](CCCN)NC(=O)[C@H](CCCN)NC1=O — IC90 (Naegleria fowleri; trophozoites): > 16 µg/mL
COCCn1c2nc(=O)n(-c3ccccc3)c(=O)c-2nc2ccccc21 — EC50 (Zika virus; viral replication, plaque reduction; Vero, Venus reporter): 200 nM
C[C@H]1c2cccc(O)c2C(=O)C2=C(O)[C@]3(O)C(=O)C(C(N)=O)=C(O)[C@@H](N(C)C)[C@@H]3[C@@H](O)[C@@H]21 — IC50 (Plasmodium falciparum; 3D7): 1260 nM
CC(C)[C@@H]1NC(=O)[C@@H](CCCCN)NC(=O)[C@H]([C@@H](C)O)NC(=O)[C@@H](CCCCN)NC(=O)[C@H](Cc2c[nH]c3ccccc23)NC(=O)[C@@H](C)NC(=O)[C@@H](C(C)C)NC(=O)[C@@H](C)NC(=O)[C@H](Cc2c[nH]c3ccccc23)NC(=O)[C@@H](Cc2c[nH]c3ccccc23)NC1=O — IC90 (Naegleria fowleri; trophozoites): > 16 µg/mL
CC(=O)O.CCc1cc2c(cc1CC)CC(NC[C@@H](O)c1ccc(O)c3[nH]c(=O)ccc13)C2 — EC50 ratio (Plasmodium falciparum; parasite growth, SYBR Green; 72 h; relative to: 3D7-E182D over 3D7): 1.3
CC[C@H](C)[C@H](NC(=O)[C@H](C)NC(=O)[C@H](CCCCN)NC(=O)[C@H](CC(C)C)NC(=O)[C@H](C)NC(=O)[C@@H](NC(=O)[C@H](Cc1c[nH]cn1)NC(=O)[C@H](CC(C)C)NC(=O)[C@@H](NC(=O)[C@@H](NC(=O)[C@H](CCCCN)NC(=O)[C@H](C)NC(=O)[C@H](C)NC(=O)[C@H](CO)NC(=O)[C@H](CCCCN)NC(=O)[C@H](Cc1ccccc1)NC(=O)[C@@H](NC(=O)[C@H](CCCCN)NC(=O)[C@H](CC(C)C)NC(=O)[C@H](Cc1ccccc1)NC(=O)[C@H](CO)NC(=O)[C@H](CCCCN)NC(=O)[C@H](Cc1c[nH]c2ccccc12)NC(=O)[C@H](CCCCN)NC(C)=O)[C@@H](C)O)[C@@H](C)O)C(C)C)[C@@H](C)O)C(=O)N[C@@H](CO)C(=O)N[C@@H](CO)C(N)=O — MBC50 (Streptococcus pyogenes; ATCC 19615; 1 strain): 16 µg/mL (≈ 5.45 µM)
Nc1ccn(C[C@@H](CO)OCP(=O)(O)O)c(=O)n1 — infection (Fowlpox virus; viral infection; CEF; 0.7812 µM; relative to: untreated): 101% and 95.2% and 104%
CC[C@H](C)[C@@H]1NC(=O)[C@@H]2CCCN2C(=O)[C@H](CC(C)C)NC(=O)[C@H](CC(C)C)NC(=O)CNC(=O)[C@@H](NC(=O)[C@@H](NC(=O)[C@H](CC(=O)O)NC(=O)CNC(=O)[C@@H](NC(=O)[C@H](C)NC(=O)CNC(=O)[C@H](CCCCN)NC(=O)[C@H](CC(C)C)NC(=O)[C@H](CC(C)C)NC(=O)[C@H](CCCCN)NC(=O)CNC(=O)[C@@H](NC(=O)[C@@H](N)CC(C)C)C(C)C)C(C)C)C(C)C)CSSC[C@@H](C(=O)O)NC1=O — log2 fold change (RNA-seq, item: Runx3; mouse, traumatic brain injury model, frontal cortex and hippocampus; dose not given; relative to: TBI alone): -2.68
COc1c(CCC[P+](c2ccccc2)(c2ccccc2)c2ccccc2)cc2c(c1OC)OCO2.[I-] — TGI (A498; SRB): -5.48 log M
C#CCN(C)[C@H](C)Cc1ccccc1 — corridor crossing time (footprint test; MPTP-induced Parkinson's disease mouse model; 10 mg/kg, trial 2): 5.55 s and 6.03 s and 5.79 s and 5.37 s and 5.02 s and 5.26 s and 8.35 s and 5.88 s
COc1ccccc1N1CCN(CCN(C(=O)C2CCCCC2)c2ccccn2)CC1 — IC50 (Plasmodium falciparum; HB3): 10000 nM
CSc1nc2nc(C)c(Cc3cccc(C(F)(F)F)c3)c(C)n2n1 — EC50 ratio (Plasmodium falciparum; parasite growth, SYBR Green; 72 h; relative to: 3D7-E182D over 3D7): 3.9
C[C@@H](O)[C@@H]1NC(=O)[C@H](Cc2ccccc2)NC(=O)[C@@H](Cc2ccccc2)NC(=O)[C@H](Cc2ccccc2)NC(=O)[C@@H](CCCN)NC(=O)[C@H](CCCCN)NC(=O)[C@@H](CCCCN)NC1=O — IC50 (Naegleria fowleri; trophozoites): > 16 µg/mL
O=C(NC12CC3CC(CC(C3)C1)C2)c1cc(-c2ccncc2F)c[nH]1 — IC50 (Vero; 48 h): > 64 µg/mL
C=C1CC[C@@]2(O)[C@H]3Cc4ccc(O)c5c4[C@@]2(CCN3CC2CC2)[C@H]1O5 — Vmax (H+/organic cation antiporter; cell uptake; hCMEC/D3): 699 pmol/min/mg protein
CC12CC3CC(C)(C1)CC(N)(C3)C2 — IC50 (Plasmodium falciparum; 7G8): 10000 nM
COc1ccccc1Cn1ccnc1SCC(=O)Nc1cccc(C(F)(F)F)c1 — EC50 (Plasmodium falciparum; parasite growth, SYBR Green; 3D7 wild type; 72 h): 592 ± 240 nM
O=C(O)C1=CC(=C(c2ccc(O)c(C(=O)O)c2)c2ccc(O)c(C(=O)O)c2)C=CC1=O — IC50 (Plasmodium falciparum; 7G8): 10000 nM
O=C(Nc1cccc(CN2CCN(C(=O)c3cccc(Cl)c3)CC2)c1)c1cccs1.O=C(O)C(F)(F)F — EC50 ratio (Plasmodium falciparum; parasite growth, SYBR Green; 72 h; relative to: 3D7-E182D over 3D7): 4.7
CC1=C(C)C(=O)C(CCCCC#CCCCC#CCO)=C(C)C1=O — IC50 (Plasmodium falciparum; GB4): 3160 nM
C[C@H](C(=O)N[C@H]1COc2ccccc2[C@@H]1S(C)(=O)=O)c1ccc(F)cc1 — inhibition (5-HT4 receptor, guinea pig; binding; 10 µM, Eurofins selectivity panel): 15%

For quick reference, copied from above:
COCCn1c2nc(=O)n(-c3ccccc3)c(=O)c-2nc2ccccc21 — EC50 (Zika virus; viral replication, plaque reduction; Vero, Venus reporter): 200 nM
C[C@H]1c2cccc(O)c2C(=O)C2=C(O)[C@]3(O)C(=O)C(C(N)=O)=C(O)[C@@H](N(C)C)[C@@H]3[C@@H](O)[C@@H]21 — IC50 (Plasmodium falciparum; 3D7): 1260 nM
CC(C)[C@@H]1NC(=O)[C@@H](CCCCN)NC(=O)[C@H]([C@@H](C)O)NC(=O)[C@@H](CCCCN)NC(=O)[C@H](Cc2c[nH]c3ccccc23)NC(=O)[C@@H](C)NC(=O)[C@@H](C(C)C)NC(=O)[C@@H](C)NC(=O)[C@H](Cc2c[nH]c3ccccc23)NC(=O)[C@@H](Cc2c[nH]c3ccccc23)NC1=O — IC90 (Naegleria fowleri; trophozoites): > 16 µg/mL
CC(=O)O.CCc1cc2c(cc1CC)CC(NC[C@@H](O)c1ccc(O)c3[nH]c(=O)ccc13)C2 — EC50 ratio (Plasmodium falciparum; parasite growth, SYBR Green; 72 h; relative to: 3D7-E182D over 3D7): 1.3
CC[C@H](C)[C@H](NC(=O)[C@H](C)NC(=O)[C@H](CCCCN)NC(=O)[C@H](CC(C)C)NC(=O)[C@H](C)NC(=O)[C@@H](NC(=O)[C@H](Cc1c[nH]cn1)NC(=O)[C@H](CC(C)C)NC(=O)[C@@H](NC(=O)[C@@H](NC(=O)[C@H](CCCCN)NC(=O)[C@H](C)NC(=O)[C@H](C)NC(=O)[C@H](CO)NC(=O)[C@H](CCCCN)NC(=O)[C@H](Cc1ccccc1)NC(=O)[C@@H](NC(=O)[C@H](CCCCN)NC(=O)[C@H](CC(C)C)NC(=O)[C@H](Cc1ccccc1)NC(=O)[C@H](CO)NC(=O)[C@H](CCCCN)NC(=O)[C@H](Cc1c[nH]c2ccccc12)NC(=O)[C@H](CCCCN)NC(C)=O)[C@@H](C)O)[C@@H](C)O)C(C)C)[C@@H](C)O)C(=O)N[C@@H](CO)C(=O)N[C@@H](CO)C(N)=O — MBC50 (Streptococcus pyogenes; ATCC 19615; 1 strain): 16 µg/mL (≈ 5.45 µM)
Nc1ccn(C[C@@H](CO)OCP(=O)(O)O)c(=O)n1 — infection (Fowlpox virus; viral infection; CEF; 0.7812 µM; relative to: untreated): 101% and 95.2% and 104%
